Assay results of several laboratories.
Parts stem from different laboratories: compare values within a part only. Values joined by “and” are separate records of one study, mostly repeats; a detail may differ.

Series 1
Target: Histone acetyltransferase KAT6A, both winged helices, GST fusion (KAT6A, Homo sapiens, UniProt Q92794, residues 1-181)
Technique: protein binding microarray
Molecule type: double-stranded DNA, one strand shown
Matrix: in vitro
Tested at: not given
Notes: 8-mer, flanks averaged, mean of 2 arrays, mostly near background
Relative to: not given
Direction: higher = stronger binding
Target sequence (chain): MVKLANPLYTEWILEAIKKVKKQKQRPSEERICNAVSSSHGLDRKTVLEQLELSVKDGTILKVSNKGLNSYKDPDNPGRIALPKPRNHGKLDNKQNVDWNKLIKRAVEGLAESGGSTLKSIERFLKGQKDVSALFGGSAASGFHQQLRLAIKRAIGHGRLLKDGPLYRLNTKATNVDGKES
| Oligonucleotide | E-score |
| --- | --- |
| GTTTTTAA | 0.0499 |
| AGTGTTGC | -0.0255 |
| GCCCGGAC | 0.076 |
| CTCCCCAG | -0.203 |
| CAGTTGTC | -0.106 |
| CCTTATAG | -0.183 |
| GCTACGGA | 0.222 |
| CGTTTCCC | 0.0863 |
| ACTCTTGA | -0.173 |
| CCCTGTGA | -0.217 |
| CAAGTGAC | -0.0584 |
| AGAGGGCT | -0.175 |

Series 2
Target: Ras GTPase-activating protein-binding protein 1, RRM domain (G3BP1, Homo sapiens, UniProt Q13283)
UniProt Q13283, sequence (whole entry, looked up): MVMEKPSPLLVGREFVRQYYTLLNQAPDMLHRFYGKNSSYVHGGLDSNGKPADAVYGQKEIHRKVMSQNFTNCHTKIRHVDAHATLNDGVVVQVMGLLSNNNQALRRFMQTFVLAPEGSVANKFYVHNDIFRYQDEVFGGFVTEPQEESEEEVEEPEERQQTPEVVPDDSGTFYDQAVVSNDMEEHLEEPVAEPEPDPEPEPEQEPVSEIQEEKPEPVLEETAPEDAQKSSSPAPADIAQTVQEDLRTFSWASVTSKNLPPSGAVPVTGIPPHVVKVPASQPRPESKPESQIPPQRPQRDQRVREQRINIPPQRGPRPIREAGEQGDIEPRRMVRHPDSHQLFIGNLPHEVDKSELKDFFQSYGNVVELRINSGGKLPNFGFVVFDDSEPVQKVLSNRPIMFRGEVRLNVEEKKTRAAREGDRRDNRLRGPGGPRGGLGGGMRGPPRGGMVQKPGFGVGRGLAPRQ
Technique: RNA Bind-n-Seq
Molecule type: RNA
Matrix: in vitro
Tested at: 1 µM
Notes: whole 134-nt RNA, ends assumed
With: 150 mM KCl
Relative to: input library
Direction: higher = stronger binding
All sequences stand within: GGGAGUUCUACAGUCCGACGAUC … UGGAAUUCUCGGGUGUCAAGG
| Oligonucleotide | log2 enrichment |
| --- | --- |
| GCAGGAAGUAAAAACAAAUGGAAAUGCUUCGGAUAGUGGCAGGGGUGGGGGUUGCUAAGGAAAGGCUGGGAUGGGAGUGGGUAAAGAGUU | 0.702 |
| CUCAAGUCCUGUGCUACACAUCGUAUGUACCGAAUCGGAAAAAGGUGGUUUGGAAAGUAUUAUGUUACGCCGUUCGGAUCUGCACUUCCA | -0.127 |
| UGCCAUAAGCGGCACCGGCACUGCCCGGUUGUCGUGUCCGAGGCCACCAUCGUGGGCGUCCGCAAGACCGGGCAGAUCUGGCCCAACGAU | -0.724 |
| ACCAUGCAGGUGGGCAUCUUUGGGAAGUGGGGCAAGGGGGGGAUAGGGAGGGGGGUAACACUUUGGGAACAGCUGGUCCCAGGUCGUUUC | 0.928 |
| GUCCUGUGCUACACAUCGUAUGUACCGAAUCGGGGAAAAAGGGGUGGGGAAAAAGGGGAAAGUAUUAUGUUACGCCGUUCGGAUCUGCAC | 0.846 |
| UCAAGUCCUGUGCUACACAUCGUAUGUACCGAAUCGGGUUUGGGUUUGGUUUGGAAAGUAUUAUGUUACGCCGUUCGGAUCUGCACUUCC | -0.267 |
| UUAAUGAUAUAAGUAGAGAGUAGUAUCCUGGUGGAGUUGUAACCACUAUUUUUGUUUUCUAGAUCCCUAUGGUUCAGGAGGCCAGAAAUU | -0.451 |

Series 3
Target: Prothrombin, mature alpha-thrombin (F2, Homo sapiens, UniProt P00734)
Technique: aptamer microarray, sandwich
Molecule type: DNA with 2'F-ANA
Matrix: in vitro
Tested at: 200 nM
Notes: whole 15-mer aptamer, many near background
With: Cy3 exosite-II aptamer, 400 nM
Direction: higher = stronger binding
Oligonucleotide: GGTTGGTGTGGTTGG
| Modification | mean fluorescence intensity [a.u.] |
| --- | --- |
| 2'F-ANA at 1 3 4 6 13 15 | 136 |
| 2'F-ANA at 2 5 6 8 9 10 12 14 15 | 58.5 |
| 2'F-ANA at 8 9 11 13 14 | 171 |
| 2'F-ANA at 6 7 9 10 12 | 192 |
| 2'F-ANA at 1 2 3 5 6 7 10 11 12 13 14 | 44.1 |
| 2'F-ANA at 2 6 7 8 9 11 13 14 15 | 113 |
| 2'F-ANA at 2 4 6 9 14 | 78.8 |
| 2'F-ANA at 1 2 3 8 12 13 15 | 415 |
| 2'F-ANA at 1 3 4 7 8 11 12 13 15 | 303 |

Mixed results
| Molecule | target | assay | test system | conditions | scale | quantity | value |
| --- | --- | --- | --- | --- | --- | --- | --- |
| PhoQ, residues 284 288 289 292 302 303 SSYNSA | PhoP, residues 12 14 15 18 19 LWHSL (Escherichia coli, UniProt P23836) | Sort-seq, refers to: YFP reporter | E. coli | PhoQ-PhoP variant library, with: 10 µM Mg2+ | relative to: high Mg2+ state, higher = stronger signaling | fold induction | 22.9 and 15.1 |

For quick reference, copied from above (series 1):
| Oligonucleotide | E-score |
| --- | --- |
| AGTGTTGC | -0.0255 |
| GCCCGGAC | 0.076 |
| CTCCCCAG | -0.203 |
| CAGTTGTC | -0.106 |
